Published values of several laboratories.
Numbered parts are unrelated; each lists some results of a single study. Positions count from the first letter of the parent shown.

Series 1 — method: protein binding microarray; form: double-stranded DNA, one strand shown; matrix: in vitro; concentration: not given; relative to: not given; direction: higher = stronger binding; endpoint: E-score
Target: Histone acetyltransferase KAT6A, winged helix 1, GST fusion (KAT6A, Homo sapiens, UniProt Q92794, residues 1-85)
Notes: 8-mer, flanks averaged, mean of 2 arrays, mostly near background
Residues (chain): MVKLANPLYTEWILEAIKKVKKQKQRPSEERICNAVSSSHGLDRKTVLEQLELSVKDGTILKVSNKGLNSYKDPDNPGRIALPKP
TACATGCA: -0.0005
ACGACGAC: -0.149
GGGTGTTA: 0.0347
ATATCAAA: -0.13
CCACATTC: -0.115
CATAGCTA: -0.0244
ATGGGACG: -0.124
AGGGTACA: -0.14
CTTGGGAA: -0.141
AGCGACAA: -0.042
CATCTTAC: -0.144
CTGTTAGC: -0.0981
AGTGCGAC: 0.243
GGAGGCCC: 0.067
CGAGTTCC: -0.0528
ATGCCCAA: -0.185

Series 2 — method: DHFR PCA, deep sequencing; matrix: yeast; together with: (+)-ABA 58 µM; relative to: wild-type fitted maximum; direction: higher = stronger binding; endpoint: relative binding score
Target: ABI1, truncated, D143A, DHFR fusion (Arabidopsis thaliana)
Notes: methotrexate growth selection, single substitutions
Starting sequence: PYL1, truncated, DHFR fusion (Arabidopsis thaliana); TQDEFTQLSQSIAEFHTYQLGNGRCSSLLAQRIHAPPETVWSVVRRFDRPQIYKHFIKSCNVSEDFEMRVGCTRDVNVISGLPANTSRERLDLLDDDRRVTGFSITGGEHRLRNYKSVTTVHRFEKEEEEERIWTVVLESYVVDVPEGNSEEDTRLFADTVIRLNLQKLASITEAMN; partner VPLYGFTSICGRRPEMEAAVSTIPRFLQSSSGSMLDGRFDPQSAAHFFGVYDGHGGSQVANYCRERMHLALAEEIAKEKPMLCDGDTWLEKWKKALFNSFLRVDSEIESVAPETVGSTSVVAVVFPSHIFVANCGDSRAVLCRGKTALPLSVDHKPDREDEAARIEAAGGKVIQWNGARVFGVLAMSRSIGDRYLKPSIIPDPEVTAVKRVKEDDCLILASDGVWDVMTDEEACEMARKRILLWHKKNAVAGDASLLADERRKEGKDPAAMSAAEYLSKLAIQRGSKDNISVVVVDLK
C60G: -2.05%
R99Y: 102%
D48W: 11.9%
N61D: 82.8%
L164Q: 85.9%
D144A: 47.6%
N22A: 94.6%
A175E: 81.9%
R90E: 56.7%
Y141S: -1.09%
E125R: 91.6%
P83W: 9.09%
E67R: 79.6%
D159R: 11.5%
T86H: 84.1%

Series 3 — method: RNA Bind-n-Seq; form: RNA; matrix: in vitro; concentration: 365 nM; relative to: no-protein control; direction: higher = stronger binding; endpoint: RBNS enrichment (R)
Target: RNA binding protein fox-1 homolog 2, RRM domain, GST-SBP tag (RBFOX2, Homo sapiens, UniProt O43251-10, residues 100-194)
Notes: natural RNA segment, single round, ends assumed
Shared flanks, not repeated: GGGAGUUCUACAGUCCGACGAUC … UGGAAUUCUCGGGUGCCAA
Construct (chain): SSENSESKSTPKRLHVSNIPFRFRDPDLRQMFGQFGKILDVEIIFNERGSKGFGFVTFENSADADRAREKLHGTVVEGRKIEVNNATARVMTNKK
UUCCAUCUGCAUCUUCCAGAUUUAUCAUGAGUGAUCUUGUUCUACUGUUAAAGAUGUCAAGCCUAAAAAGUAAUAAAGUUUUUAUUUGGCUGUUGAACCUUGAUGUAGCC: 0.981
UCGUGUGGGGAGCUUGCUCCCCCAGGGGAGAGGCCCCUUUACCUCAGUGGAUCCUGUUAAGGAGUGCUUCCAGCCUCAGCCUGGGCCCCUCCCACCUGGCAUGGUAAGGG: 5.02
CCGGAGGCGGCCUUCCCAUCUGCCUGCCCACCCGGAGCUCUUUCCGCCGGCGCAGGGUCCCAAGCCCACCUCCCGCCCUCAGUCCUGCGGUGUGCGUCUGGGCACGUCCU: 0.4
CAUUGUGAGAUCGAUCUGUCCUGGCAGUUAACACAAUGUGCAACAGUGUGUUAGCAUGGAACAGAACGCCUCUCACAAAACAAAGGACCGUUUUACAAAGGAUGAUCCGA: 0.193
CCUGGCCUCUGUCCACCCGUCAGCAGUGUGAAGUCUGUUGUGUUUGAGCUUCUCAGAGUGGAAUGACUCCUUUUCCUUCCUGGCCCUCGGGGGCCUCUCGAGGUCAGCCU: 0.287
CUCUCAGCUGGGACAGGAGGUGGCUGCUCAGUCCUAGAGUAGCUCUAUGGGUGAAACCGGCUCUAGUUCUGUCCCCAGCCCCACCCUCUGGUCUCCUACUCUCUGGCCCU: 0.487
CCUGGGUUUUGUAUUCUCUGAGCUGUGCAGGUGGGGAGACUGGGCUGAGGGAGCCUGGCCCCAUGGUCAGCCCUAGGGUGGAGAGCCACCAAGAGGGACGCCUGGGGGUG: 0.65
AGGGAGCUUUUUAAAACACUUCAUUUCAGAUUCAUUAUUGAAAAAGGUCAUCAAAAUAAUUUUUGUGUAUAAGGGAAUUUACCUUGCUUACCUUACUAGUAUGACUAUUA: 0.297

Series 4 — target: CCNF, cyclin fold, Cln2 fusion (human); method: yeast growth competition, sequencing; matrix: yeast; notes: strong parent motif; relative to: not given; direction: higher = stronger binding; endpoint: normalised enrichment score
Starting sequence: BRCA2 docking peptide (human); PSIKRNLLNEFDR; partner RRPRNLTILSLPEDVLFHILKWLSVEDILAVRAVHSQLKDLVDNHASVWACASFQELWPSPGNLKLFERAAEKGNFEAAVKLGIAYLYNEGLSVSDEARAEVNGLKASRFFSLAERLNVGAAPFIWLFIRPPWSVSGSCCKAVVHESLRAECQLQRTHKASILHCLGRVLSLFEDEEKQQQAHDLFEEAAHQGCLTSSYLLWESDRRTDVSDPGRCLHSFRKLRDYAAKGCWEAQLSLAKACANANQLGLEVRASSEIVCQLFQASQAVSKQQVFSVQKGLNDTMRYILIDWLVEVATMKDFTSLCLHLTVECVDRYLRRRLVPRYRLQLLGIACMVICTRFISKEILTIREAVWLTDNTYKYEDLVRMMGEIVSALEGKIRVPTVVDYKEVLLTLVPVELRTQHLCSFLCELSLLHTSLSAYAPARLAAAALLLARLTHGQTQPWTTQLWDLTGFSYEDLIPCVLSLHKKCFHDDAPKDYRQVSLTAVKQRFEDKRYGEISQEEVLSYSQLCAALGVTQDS
P1F: 3.06
E10D: 4.67
I3D: -0.814
L7I: 1.51
L7P: -0.00806
F11H: 0.765
E10F: 2.61
I3V: 4.75
N6I: 0.89
R13E: 2.09
R13A: 3.43
L7E: 0.618
E10A: 1.98
N6Y: 1.56
F11M: 1.1
N9K: 4.24

A few entries again (series 1):
CCACATTC: -0.115
CTGTTAGC: -0.0981
CGAGTTCC: -0.0528
